Measurements pooled from the literature.
A part holds a random share of what one study measured.
UniProt P93830, sequence (whole entry, looked up): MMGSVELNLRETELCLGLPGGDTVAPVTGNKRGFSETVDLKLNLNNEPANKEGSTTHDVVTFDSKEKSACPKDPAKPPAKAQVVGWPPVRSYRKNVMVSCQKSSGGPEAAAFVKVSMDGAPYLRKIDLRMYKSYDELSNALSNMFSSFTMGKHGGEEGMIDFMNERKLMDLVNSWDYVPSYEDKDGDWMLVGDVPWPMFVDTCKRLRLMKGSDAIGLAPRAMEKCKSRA
UniProt Q9NYY3, sequence (whole entry, looked up): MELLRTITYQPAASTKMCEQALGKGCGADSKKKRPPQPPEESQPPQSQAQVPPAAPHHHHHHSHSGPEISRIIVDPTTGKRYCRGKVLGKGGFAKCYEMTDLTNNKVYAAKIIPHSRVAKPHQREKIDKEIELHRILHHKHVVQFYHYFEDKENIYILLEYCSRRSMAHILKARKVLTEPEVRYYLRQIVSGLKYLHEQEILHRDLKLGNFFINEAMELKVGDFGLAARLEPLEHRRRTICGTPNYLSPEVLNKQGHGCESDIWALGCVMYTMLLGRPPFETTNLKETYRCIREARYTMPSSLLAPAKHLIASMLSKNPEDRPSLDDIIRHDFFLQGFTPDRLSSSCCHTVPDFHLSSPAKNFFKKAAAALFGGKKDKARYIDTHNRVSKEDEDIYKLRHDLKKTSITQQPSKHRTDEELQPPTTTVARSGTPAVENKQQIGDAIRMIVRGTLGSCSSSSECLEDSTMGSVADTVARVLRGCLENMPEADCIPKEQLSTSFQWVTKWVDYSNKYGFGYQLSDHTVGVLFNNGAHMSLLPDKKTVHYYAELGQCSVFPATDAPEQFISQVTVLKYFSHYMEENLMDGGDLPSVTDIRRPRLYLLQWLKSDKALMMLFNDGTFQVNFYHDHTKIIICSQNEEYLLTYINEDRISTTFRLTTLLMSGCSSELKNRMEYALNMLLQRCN
UniProt P15056, sequence (whole entry, unmodified, looked up): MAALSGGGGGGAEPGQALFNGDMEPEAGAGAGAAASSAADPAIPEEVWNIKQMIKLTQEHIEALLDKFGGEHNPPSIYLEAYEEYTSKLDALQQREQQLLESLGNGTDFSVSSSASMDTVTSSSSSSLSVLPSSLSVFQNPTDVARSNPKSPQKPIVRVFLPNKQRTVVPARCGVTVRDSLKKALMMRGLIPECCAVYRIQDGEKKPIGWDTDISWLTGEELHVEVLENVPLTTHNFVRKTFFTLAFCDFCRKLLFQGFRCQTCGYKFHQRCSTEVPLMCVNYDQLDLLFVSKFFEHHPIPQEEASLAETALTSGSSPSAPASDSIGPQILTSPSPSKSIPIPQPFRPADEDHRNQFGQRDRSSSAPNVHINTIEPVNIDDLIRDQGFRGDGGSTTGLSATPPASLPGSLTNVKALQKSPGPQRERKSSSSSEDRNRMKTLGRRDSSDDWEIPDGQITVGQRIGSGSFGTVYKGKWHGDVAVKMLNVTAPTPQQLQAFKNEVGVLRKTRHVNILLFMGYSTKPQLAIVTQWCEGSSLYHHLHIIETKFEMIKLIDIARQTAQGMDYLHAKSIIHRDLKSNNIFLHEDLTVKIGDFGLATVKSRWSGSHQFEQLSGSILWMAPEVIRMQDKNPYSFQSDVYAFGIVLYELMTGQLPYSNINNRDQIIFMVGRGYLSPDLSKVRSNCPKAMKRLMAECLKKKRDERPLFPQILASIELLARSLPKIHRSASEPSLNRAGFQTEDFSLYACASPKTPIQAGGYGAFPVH
UniProt Q9Y6M4, sequence (whole entry, looked up): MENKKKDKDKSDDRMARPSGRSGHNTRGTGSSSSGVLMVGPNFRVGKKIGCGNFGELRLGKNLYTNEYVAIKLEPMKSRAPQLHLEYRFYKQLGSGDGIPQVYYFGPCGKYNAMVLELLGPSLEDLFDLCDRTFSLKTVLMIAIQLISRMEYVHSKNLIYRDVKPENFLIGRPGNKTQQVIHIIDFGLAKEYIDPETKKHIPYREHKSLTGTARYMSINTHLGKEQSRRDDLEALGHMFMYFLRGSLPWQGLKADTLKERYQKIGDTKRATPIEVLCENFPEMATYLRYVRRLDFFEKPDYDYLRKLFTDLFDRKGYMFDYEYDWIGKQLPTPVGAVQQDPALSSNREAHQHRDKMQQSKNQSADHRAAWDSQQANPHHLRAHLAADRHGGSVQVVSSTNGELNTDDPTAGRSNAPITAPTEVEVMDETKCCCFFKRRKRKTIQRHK
UniProt P00519, sequence (whole entry, unmodified, looked up): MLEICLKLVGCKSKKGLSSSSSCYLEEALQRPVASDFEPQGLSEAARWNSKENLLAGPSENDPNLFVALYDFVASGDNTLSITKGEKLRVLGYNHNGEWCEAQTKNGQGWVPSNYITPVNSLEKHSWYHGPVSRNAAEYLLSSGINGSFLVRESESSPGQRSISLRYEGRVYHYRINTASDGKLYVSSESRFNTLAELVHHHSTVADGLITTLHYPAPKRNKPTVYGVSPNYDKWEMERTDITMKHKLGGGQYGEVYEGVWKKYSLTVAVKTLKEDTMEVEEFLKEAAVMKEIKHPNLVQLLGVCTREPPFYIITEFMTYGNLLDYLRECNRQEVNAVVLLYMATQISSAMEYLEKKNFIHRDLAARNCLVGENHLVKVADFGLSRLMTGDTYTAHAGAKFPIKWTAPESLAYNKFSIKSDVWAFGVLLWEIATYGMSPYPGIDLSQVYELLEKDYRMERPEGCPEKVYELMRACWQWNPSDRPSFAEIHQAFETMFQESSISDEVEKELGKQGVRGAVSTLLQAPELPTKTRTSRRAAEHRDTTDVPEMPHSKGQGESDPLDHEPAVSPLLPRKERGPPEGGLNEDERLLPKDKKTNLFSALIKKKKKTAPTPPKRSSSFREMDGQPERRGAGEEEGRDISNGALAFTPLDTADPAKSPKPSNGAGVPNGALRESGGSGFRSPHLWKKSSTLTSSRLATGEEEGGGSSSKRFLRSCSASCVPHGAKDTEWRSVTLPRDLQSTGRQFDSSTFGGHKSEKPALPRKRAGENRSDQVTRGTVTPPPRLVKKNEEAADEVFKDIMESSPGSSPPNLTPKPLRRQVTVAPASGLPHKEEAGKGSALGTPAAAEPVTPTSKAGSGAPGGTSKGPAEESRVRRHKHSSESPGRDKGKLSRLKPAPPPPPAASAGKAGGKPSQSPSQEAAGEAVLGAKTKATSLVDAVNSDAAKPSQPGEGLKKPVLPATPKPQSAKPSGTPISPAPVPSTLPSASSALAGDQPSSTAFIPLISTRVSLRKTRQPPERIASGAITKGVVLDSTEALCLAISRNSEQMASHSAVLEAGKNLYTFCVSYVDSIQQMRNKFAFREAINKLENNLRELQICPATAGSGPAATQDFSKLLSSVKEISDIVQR
UniProt Q8L7G0, sequence (whole entry, looked up): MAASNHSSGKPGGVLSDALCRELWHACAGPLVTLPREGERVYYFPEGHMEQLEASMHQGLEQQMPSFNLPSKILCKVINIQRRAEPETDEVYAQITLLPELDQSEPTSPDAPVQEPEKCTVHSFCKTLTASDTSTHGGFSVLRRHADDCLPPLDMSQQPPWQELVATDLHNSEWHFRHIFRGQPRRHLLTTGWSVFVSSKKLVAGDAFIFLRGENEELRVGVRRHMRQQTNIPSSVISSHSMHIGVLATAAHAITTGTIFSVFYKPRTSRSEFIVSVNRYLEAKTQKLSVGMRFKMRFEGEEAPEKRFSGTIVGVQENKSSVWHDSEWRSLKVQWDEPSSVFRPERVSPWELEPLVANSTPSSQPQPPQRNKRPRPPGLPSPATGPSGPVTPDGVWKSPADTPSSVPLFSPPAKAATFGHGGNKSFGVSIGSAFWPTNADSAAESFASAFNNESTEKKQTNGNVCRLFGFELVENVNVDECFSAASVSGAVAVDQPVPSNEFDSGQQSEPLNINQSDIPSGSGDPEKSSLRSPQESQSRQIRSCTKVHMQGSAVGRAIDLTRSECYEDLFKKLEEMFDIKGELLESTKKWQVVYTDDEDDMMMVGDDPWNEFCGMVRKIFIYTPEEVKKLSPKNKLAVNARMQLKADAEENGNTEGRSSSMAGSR
UniProt Q9UBE8, sequence (whole entry, looked up): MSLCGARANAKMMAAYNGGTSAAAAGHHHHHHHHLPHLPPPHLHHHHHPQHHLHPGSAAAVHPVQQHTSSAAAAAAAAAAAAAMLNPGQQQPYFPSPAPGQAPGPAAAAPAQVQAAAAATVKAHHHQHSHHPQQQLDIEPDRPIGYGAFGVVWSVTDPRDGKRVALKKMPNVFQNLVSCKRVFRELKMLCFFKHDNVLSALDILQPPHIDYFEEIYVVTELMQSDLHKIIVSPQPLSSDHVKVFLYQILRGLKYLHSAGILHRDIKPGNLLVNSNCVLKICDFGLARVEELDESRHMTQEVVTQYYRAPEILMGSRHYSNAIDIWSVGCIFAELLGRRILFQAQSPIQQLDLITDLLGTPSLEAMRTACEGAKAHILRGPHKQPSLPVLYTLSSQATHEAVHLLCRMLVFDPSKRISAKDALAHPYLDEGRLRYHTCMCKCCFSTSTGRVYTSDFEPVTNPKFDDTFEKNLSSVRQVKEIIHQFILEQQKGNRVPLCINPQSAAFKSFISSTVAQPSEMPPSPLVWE
UniProt Q9C966, sequence (whole entry, looked up): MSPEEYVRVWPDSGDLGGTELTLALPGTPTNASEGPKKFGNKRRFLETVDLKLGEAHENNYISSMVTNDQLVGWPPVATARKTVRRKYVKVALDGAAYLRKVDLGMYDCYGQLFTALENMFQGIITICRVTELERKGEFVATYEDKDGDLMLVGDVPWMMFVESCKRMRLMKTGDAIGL

Series 1 — effect on: cell-free assay; method: competition with immobilised ligand; concentration: 1 µM
Structure (SMILES): CCC(=O)N[C@@H]1CC[C@H](C(=O)N(C)c2ccc(-c3nc4ccccc4o3)cc2)C1
target | remaining binding [%]
Tyrosine-protein kinase ABL1, non-phosphorylated (ABL1, Homo sapiens, UniProt P00519, F317L) | 92
Serine/threonine-protein kinase PLK2 (PLK2, Homo sapiens, UniProt Q9NYY3) | 100
Serine/threonine-protein kinase NLK (NLK, Homo sapiens, UniProt Q9UBE8) | 100
Serine/threonine-protein kinase B-raf (BRAF, Homo sapiens, UniProt P15056, V600E) | 100

Series 2 — method: two-hybrid; reading: higher = firmer interaction
Molecule: IAA7 (Arabidopsis thaliana, UniProt Q38825)
UniProt Q38825, sequence (whole entry, looked up): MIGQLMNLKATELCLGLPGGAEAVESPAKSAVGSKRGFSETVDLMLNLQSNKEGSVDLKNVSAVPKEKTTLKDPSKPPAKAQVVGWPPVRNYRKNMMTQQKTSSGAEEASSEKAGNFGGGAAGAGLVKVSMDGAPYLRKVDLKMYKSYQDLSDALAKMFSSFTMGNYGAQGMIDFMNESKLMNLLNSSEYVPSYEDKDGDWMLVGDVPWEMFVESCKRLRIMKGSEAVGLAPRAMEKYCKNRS
partner | scale | positive tests
IAA33 (Arabidopsis thaliana, UniProt Q9FKM7) | baseline: out of 4 tests | 3
ARF1 538-665 (Arabidopsis thaliana, UniProt Q8L7G0) | baseline: out of 2 tests | 0
IAA32 (Arabidopsis thaliana, UniProt Q8RYC6) | baseline: out of 4 tests | 3
IAA15 (Arabidopsis thaliana, UniProt Q9C966) | baseline: out of 4 tests | 2
IAA17 (Arabidopsis thaliana, UniProt P93830) | baseline: out of 4 tests | 2

Series 3 — method: protein-binding microarray; molecule type: hairpin DNA; matrix: in vitro; concentration: not given; baseline: not given; reading: higher = stronger binding
Target: Cellular tumor antigen p53, full length (TP53, Homo sapiens, UniProt P04637, residues 1-393)
Notes: whole hairpin DNA, median over replicate spots
Oligonucleotide | median fluorescence
CGGACAGGCCCGGGCATGTCTCCTGACATGCCCGGGCCTGTCCGACACTC (5mC at 38) | 13900 a.u.
CCACACGTGGTGGCATGCCTTCCTAGGCATGCCACCACGTGTGGACACTC (5mC at 38) | 7430 a.u.
CCACACGTGGTGGCGTGCCTTCCTAGGCACGCCACCACGTGTGGACACTC | 4820 a.u.
CGGACATGCGCGGGCATGTCTCCTGACATGCCCGCGCATGTCCGACACTC | 15100 a.u.
CGGACATGCCCGGGCGTGTCTCCTGACACGCCCGGGCATGTCCGACACTC (5mC at 15) | 12600 a.u.
CGGACATGCGCGGGCATGTCTCCTGACATGCCCGCGCATGTCCGACACTC (5mC at 9) | 15400 a.u.
CCACACGTGGCGGCATGCCTTCCTAGGCATGCCGCCACGTGTGGACACTC (5mC at 11 33) | 6660 a.u.
CCACACGCGGTGGCATGCCTTCCTAGGCATGCCACCGCGTGTGGACACTC (5mC at 8) | 6920 a.u.

Series 4 — effect on: enzyme activity; mode: inhibitor; concentration: 0.5 µM; baseline: control
SMILES: NC(=O)c1ccc(N(C(N)=O)c2c(F)cccc2F)nc1-c1ccc(F)cc1F
target | remaining activity [%]
Tyrosine-protein kinase Lck (LCK, Homo sapiens, UniProt P06239) | 86.3
Dual specificity mitogen-activated protein kinase kinase 2 (MAP2K2, Homo sapiens, UniProt P36507) | 92.3
Serine/threonine-protein kinase Nek1 (NEK1, Homo sapiens, UniProt Q96PY6) | 69.6
Serine/threonine-protein kinase ULK2 (ULK2, Homo sapiens, UniProt Q8IYT8) | 101
Glycogen synthase kinase-3 beta (GSK3B, Homo sapiens, UniProt P49841) | 101
Casein kinase I isoform gamma-3 (CSNK1G3, Homo sapiens, UniProt Q9Y6M4) | 103
Serine/threonine-protein kinase TAO2 (TAOK2, Homo sapiens, UniProt Q9UL54) | 98.7
Serine/threonine-protein kinase Nek6 (NEK6, Homo sapiens, UniProt Q9HC98) | 90.5
Ribosomal protein S6 kinase alpha-2 (RPS6KA2, Homo sapiens, UniProt Q15349) | 97.5
Mitogen-activated protein kinase kinase kinase 14 (MAP3K14, Homo sapiens, UniProt Q99558) | 114
Tyrosine-protein kinase JAK3 (JAK3, Homo sapiens, UniProt P52333) | 95.7
Mitogen-activated protein kinase kinase kinase 5 (MAP3K5, Homo sapiens, UniProt Q99683) | 102
Ephrin type-A receptor 3 (EPHA3, Homo sapiens, UniProt P29320) | 97
Fibroblast growth factor receptor 3 (FGFR3, Homo sapiens, UniProt P22607) | 90.2

Excerpt of the above (series 4):
target | remaining activity [%]
Serine/threonine-protein kinase TAO2 (TAOK2, Homo sapiens, UniProt Q9UL54) | 98.7
Serine/threonine-protein kinase Nek6 (NEK6, Homo sapiens, UniProt Q9HC98) | 90.5
Ribosomal protein S6 kinase alpha-2 (RPS6KA2, Homo sapiens, UniProt Q15349) | 97.5
Mitogen-activated protein kinase kinase kinase 14 (MAP3K14, Homo sapiens, UniProt Q99558) | 114
